# Measured values from different studies.
# Compare with care: the assays were run in different laboratories. Numbers after ± are the reported error.
# Organism: Candida albicans
Substance,assay,system,setting,MIC
CCOC(=O)c1c(N)csc1-c1cn(-c2ccccc2)nc1-c1ccc(C)cc1,broth microdilution,clinical urinary isolate,compound gamma-irradiated 10 kGy,0.124 ± 0.5 mg/L
pneumocandin K,"broth microdilution, resazurin",ATCC 90028,"24 h, 35 °C",0.2 mg/L
O=C(/C=C/c1ccc(O)c(O)c1)O[C@@H]1C[C@](O)(C(=O)O)C[C@@H](O)[C@H]1O,"microbial growth, broth dilution",,48 h,25 µM
Cl.Cl.N=C(N)N/N=C/c1ccc(-c2cccc(/C=N/NC(=N)N)c2)cc1,,seven strains,,1 to 3.9 mg/L
pneumocandin H,"broth microdilution, resazurin",ATCC 90028,"24 h, 35 °C",1.6 mg/L
C/C(=N\NC(=N)N)c1ccc(/C(C)=N/NC(=N)N)cc1.Cl.Cl,,seven strains,,≥ 31.3 mg/L
pneumocandin J,"broth microdilution, resazurin",ATCC 90028,"24 h, 35 °C",1.6 mg/L
Cl.N=C(N)N/N=C/c1ccc(-c2ccc(/C=N/Nc3ccccc3Cl)cc2)cc1,,seven strains,,1 to 3.9 mg/L
OB(O)O,broth macrodilution,ATCC 10231,added: zinc borate 9%,0.0058%
COc1ccc(-c2nc3cc(-c4nc5cc(N6CCN(C)CC6)ccc5[nH]4)ccc3[nH]2)cc1,"microbial growth, broth dilution",,,3.9 to 7.8 mg/L
CCc1nc(N)nc(N)c1C#CC(C)c1ccc(-c2ccc(C#N)cc2)cc1OC (stereo not drawn),"microbial growth, resazurin",SC5314,,1.8 to 7.5 mg/L
Cc1ccc(C(C)C)cc1.Cc1ccc(C(C)C)cc1.[Cl][Ru][Cl].[Cl][Ru][Cl],broth microdilution,ATCC 10231,"24 to 48 h, 37 °C",1000 mg/L
